Results collected from several papers.
Every numbered part comes from another study and shows a few of its results, in no order. Values joined by “and” are separate records of one study, mostly repeats; a detail may differ.
Chain of UniProt P15056 (whole entry, looked up): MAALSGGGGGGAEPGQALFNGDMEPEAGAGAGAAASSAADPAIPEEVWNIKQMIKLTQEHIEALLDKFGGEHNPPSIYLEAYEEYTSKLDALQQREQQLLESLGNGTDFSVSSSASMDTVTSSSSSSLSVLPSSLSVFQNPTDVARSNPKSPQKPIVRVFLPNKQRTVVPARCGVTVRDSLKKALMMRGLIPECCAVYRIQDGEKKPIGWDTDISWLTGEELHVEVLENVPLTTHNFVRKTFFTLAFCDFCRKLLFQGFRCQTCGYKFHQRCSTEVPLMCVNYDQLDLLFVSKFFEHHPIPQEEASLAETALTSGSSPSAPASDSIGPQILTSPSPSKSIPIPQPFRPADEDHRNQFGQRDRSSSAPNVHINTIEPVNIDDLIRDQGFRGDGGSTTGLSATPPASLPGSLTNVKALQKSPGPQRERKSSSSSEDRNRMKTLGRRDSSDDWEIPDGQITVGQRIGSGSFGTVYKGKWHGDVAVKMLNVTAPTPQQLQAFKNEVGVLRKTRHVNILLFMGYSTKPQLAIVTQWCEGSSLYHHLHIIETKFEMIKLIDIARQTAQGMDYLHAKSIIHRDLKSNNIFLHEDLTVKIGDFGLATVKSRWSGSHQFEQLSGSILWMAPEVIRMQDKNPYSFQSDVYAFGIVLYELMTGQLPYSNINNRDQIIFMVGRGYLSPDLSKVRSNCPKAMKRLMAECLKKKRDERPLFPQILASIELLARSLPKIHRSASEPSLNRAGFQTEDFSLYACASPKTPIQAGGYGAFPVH
Chain of UniProt Q86Y07 (whole entry, looked up): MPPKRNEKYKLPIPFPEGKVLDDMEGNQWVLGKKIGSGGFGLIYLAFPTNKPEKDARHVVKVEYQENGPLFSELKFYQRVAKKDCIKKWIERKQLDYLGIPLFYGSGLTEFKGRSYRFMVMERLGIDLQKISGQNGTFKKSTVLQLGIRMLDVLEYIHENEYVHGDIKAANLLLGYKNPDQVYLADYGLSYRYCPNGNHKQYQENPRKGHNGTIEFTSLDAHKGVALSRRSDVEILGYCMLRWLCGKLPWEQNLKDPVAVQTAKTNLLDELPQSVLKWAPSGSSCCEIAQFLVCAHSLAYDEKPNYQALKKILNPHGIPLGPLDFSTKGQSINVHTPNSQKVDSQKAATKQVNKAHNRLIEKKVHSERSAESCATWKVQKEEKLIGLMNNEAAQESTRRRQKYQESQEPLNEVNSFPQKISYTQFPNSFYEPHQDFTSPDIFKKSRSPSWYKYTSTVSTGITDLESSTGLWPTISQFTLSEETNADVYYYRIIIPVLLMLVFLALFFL
Chain of UniProt Q9HBY8 (whole entry, looked up): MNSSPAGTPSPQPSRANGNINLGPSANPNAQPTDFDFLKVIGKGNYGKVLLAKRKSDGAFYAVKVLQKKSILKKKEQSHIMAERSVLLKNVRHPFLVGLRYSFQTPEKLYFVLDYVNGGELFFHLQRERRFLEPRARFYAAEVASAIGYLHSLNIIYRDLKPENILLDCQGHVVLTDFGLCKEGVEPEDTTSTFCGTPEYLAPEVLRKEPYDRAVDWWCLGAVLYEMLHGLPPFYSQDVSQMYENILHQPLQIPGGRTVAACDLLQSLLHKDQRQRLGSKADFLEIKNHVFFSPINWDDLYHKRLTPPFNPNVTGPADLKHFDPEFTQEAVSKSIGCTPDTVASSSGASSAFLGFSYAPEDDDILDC
Chain of UniProt Q86YV6 (whole entry, looked up): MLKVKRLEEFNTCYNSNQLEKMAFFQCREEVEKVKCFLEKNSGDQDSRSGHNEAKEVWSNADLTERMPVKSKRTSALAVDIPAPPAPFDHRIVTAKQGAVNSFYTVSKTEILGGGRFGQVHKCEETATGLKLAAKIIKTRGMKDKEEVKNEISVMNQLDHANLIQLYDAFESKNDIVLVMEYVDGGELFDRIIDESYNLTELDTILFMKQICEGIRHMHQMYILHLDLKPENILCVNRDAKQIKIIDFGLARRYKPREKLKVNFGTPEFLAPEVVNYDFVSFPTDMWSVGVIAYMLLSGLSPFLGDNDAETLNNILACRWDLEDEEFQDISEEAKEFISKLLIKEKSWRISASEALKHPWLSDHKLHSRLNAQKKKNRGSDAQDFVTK
Chain of UniProt Q9NRM7 (whole entry, looked up): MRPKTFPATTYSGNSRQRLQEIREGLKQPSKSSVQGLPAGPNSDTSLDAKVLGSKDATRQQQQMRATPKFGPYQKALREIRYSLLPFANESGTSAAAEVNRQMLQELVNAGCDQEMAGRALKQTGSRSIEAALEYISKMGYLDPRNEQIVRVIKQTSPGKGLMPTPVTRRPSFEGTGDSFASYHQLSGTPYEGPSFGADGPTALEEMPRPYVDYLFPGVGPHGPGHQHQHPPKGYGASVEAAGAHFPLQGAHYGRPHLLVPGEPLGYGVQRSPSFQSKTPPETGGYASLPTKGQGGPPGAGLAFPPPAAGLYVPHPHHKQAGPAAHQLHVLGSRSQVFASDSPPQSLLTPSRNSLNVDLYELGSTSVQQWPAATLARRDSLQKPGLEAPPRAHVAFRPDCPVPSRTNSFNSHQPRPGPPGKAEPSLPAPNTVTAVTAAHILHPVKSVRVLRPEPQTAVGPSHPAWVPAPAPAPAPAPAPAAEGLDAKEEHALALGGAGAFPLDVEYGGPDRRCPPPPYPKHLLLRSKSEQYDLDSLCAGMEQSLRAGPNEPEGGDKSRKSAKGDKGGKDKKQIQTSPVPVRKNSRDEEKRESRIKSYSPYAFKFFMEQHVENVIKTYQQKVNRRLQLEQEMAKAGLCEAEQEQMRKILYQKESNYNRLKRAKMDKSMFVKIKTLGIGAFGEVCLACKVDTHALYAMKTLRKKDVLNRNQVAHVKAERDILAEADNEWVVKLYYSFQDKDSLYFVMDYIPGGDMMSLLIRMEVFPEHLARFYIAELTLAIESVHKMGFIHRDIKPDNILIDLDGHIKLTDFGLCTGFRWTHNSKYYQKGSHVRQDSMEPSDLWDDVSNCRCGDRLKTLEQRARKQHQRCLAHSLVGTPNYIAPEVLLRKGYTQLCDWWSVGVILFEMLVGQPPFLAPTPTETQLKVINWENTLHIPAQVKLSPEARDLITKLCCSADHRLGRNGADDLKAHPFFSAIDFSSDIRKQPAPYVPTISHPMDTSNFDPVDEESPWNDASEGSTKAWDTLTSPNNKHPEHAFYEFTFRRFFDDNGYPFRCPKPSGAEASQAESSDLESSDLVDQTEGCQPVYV
Chain of UniProt Q32MK0 (whole entry, looked up): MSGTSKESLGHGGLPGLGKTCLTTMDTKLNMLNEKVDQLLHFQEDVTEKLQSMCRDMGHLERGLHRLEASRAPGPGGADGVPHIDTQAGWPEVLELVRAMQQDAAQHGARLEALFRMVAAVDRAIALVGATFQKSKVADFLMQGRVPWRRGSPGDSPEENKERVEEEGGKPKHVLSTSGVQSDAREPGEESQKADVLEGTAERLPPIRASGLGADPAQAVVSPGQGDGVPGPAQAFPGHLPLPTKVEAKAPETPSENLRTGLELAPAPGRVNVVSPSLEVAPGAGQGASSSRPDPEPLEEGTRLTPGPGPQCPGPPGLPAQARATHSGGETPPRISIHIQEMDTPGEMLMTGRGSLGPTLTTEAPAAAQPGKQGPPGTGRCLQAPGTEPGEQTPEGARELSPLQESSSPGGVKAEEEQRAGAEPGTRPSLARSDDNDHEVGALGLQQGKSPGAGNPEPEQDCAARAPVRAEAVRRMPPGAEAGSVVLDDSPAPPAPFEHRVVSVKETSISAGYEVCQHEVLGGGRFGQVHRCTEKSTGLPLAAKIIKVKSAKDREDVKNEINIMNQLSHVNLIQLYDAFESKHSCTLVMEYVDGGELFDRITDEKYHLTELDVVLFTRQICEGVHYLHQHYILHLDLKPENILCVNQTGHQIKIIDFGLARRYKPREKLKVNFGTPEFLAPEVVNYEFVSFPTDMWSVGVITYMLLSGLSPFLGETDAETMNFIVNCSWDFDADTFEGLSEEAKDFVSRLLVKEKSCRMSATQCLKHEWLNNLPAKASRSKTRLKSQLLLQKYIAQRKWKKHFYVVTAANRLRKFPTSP

Study 1
Compound: Cc1ccc(NC(=O)c2ccnc(C(F)(F)F)c2)cc1-c1cc(OCCO)nc(N2CCOCC2)c1
Concentration: 1 µM
target	technique	notes	baseline	remaining binding [%]
MYLK4 (Homo sapiens, UniProt Q86YV6)	competitive binding panel		vehicle	96
VRK2 (Homo sapiens, UniProt Q86Y07)	competitive binding panel		vehicle	100
TNIK (Homo sapiens, UniProt Q9UKE5)	competitive binding panel		vehicle	100
LATS2 (Homo sapiens, UniProt Q9NRM7)	competitive binding panel		vehicle	98
CSNK1G1 (Homo sapiens, UniProt Q9HCP0)	competitive binding panel		vehicle	91
CAMK4 (Homo sapiens, UniProt Q16566)	competitive binding panel		vehicle	100
MYLK3 (Homo sapiens, UniProt Q32MK0)	competitive binding	MLCK		100
HIPK2 (Homo sapiens, UniProt Q9H2X6)	competitive binding panel		vehicle	76
PAK1 (Homo sapiens, UniProt Q13153)	competitive binding panel		vehicle	85
PLK1 (Homo sapiens, UniProt P53350)	competitive binding panel		vehicle	94
JAK2 (Homo sapiens, UniProt O60674)	competitive binding panel	JH1 catalytic domain	vehicle	69
SGK2 (Homo sapiens, UniProt Q9HBY8)	competitive binding panel		vehicle	93
DYRK1A (Homo sapiens, UniProt Q13627)	competitive binding panel		vehicle	100
MAP3K12 (Homo sapiens, UniProt Q12852)	competitive binding, scanMAX	DLK, 1000 nM		100
PRKX (Homo sapiens, UniProt P51817)	competitive binding panel		vehicle	100
PIK3C2G (Homo sapiens, UniProt O75747)	competitive binding panel		vehicle	96
BRAF (Homo sapiens, UniProt P15056)	competitive binding panel		vehicle	0.4
CDKL3 (Homo sapiens, UniProt Q8IVW4)	competitive binding panel		vehicle	93

Study 2
Target: Calcium/calmodulin-dependent protein kinase type II subunit alpha (CAMK2A, Homo sapiens, UniProt Q9UQM7)
Chain of UniProt Q9UQM7 (whole entry, looked up): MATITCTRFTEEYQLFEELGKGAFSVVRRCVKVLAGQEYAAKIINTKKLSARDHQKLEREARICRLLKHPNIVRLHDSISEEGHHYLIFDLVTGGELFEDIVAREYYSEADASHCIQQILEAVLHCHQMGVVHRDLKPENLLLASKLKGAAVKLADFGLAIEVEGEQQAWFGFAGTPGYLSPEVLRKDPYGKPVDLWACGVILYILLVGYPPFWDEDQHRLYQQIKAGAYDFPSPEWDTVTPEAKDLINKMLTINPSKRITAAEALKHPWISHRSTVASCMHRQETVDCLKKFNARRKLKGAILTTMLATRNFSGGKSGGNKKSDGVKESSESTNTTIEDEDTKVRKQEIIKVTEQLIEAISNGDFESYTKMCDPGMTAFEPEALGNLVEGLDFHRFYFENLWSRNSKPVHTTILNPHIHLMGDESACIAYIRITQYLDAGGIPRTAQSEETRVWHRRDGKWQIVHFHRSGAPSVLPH
Effect on: enzyme activity
Action: inhibitor
Concentration: 10 µM
SMILES	inhibition
O=C(O)[C@H]1O[C@@H](Oc2cc(O)c3c(=O)cc(-c4ccc(O)c(O)c4)oc3c2)[C@H](O)[C@@H](O)[C@@H]1O	-26%
C/C(=C\C(=O)CC(C)C(=O)O)[C@H]1C[C@H](O)[C@@]2(C)C3=C(C(=O)C[C@]12C)[C@@]1(C)CCC(=O)C(C)(C)[C@@H]1C[C@@H]3O (stereo partly shown)	2%
COc1cc(CCC(=O)CC(=O)CCc2ccc(O)c(OC)c2)ccc1O	11%
C[C@H](O)CC(=O)O	-16%
CN/C(=N\CCSCc1nc[nH]c1C)NC#N	3%
COc1cc2ccc(=O)oc2c(O)c1O	-40%
O=C(c1cc(Cl)c(O)c(Cl)c1)N1CS(=O)(=O)c2ccccc21	3%
O=C(O)/C=C(\CC(=O)O)C(=O)O	-1%
CSCC[C@H](N)C(=O)O	29%
CC1(S(=O)(=O)O)CC(=O)c2ccccc2C1=O (stereo not shown)	-3%
CC(C)c1ccc2c(c1)CC[C@H]1[C@](C)(CN)CCC[C@]21C	-42%
O=C(/C=C/C=C/c1ccccc1)CCc1ccccc1	15%

Study 3
Target: Serine/threonine-protein kinase 24 (STK24, Homo sapiens, UniProt Q9Y6E0)
Chain of UniProt Q9Y6E0 (whole entry, looked up): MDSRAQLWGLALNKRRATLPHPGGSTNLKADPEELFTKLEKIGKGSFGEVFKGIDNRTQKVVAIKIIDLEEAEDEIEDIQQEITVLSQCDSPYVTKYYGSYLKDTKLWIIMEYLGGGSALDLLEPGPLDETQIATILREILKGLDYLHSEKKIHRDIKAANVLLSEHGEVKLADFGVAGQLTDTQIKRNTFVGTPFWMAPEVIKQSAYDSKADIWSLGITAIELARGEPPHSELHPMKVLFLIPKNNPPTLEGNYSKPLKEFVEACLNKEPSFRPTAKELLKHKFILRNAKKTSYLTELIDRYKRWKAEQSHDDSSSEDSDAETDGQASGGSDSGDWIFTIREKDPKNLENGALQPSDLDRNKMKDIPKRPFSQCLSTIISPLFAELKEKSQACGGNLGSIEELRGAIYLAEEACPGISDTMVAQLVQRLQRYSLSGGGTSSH
Effect on: enzyme activity
Action: inhibitor
Concentration: 0.5 µM
Baseline: control
Structure (SMILES)	remaining activity [%]
CCOc1cc2ncnc(Nc3cccc(Br)c3)c2cc1OCC	97.6
COc1cc2ncc(-c3ccccc3)nc2cc1OC	104
Cc1ccc(NC(=O)c2ccc(CN3CCN(C)CC3)cc2)cc1Nc1nccc(-c2cccnc2)n1	107
CC(=O)O/N=C1/C(c2c(O)[nH]c3cc(Br)ccc23)=Nc2ccccc21	70.9
O=c1cc(N2CCOCC2)oc2c1ccc1ccccc12	103
Cc1nc(Nc2ncc(C(=O)Nc3c(C)cccc3Cl)s2)cc(N2CCN(CCO)CC2)n1	104
CC(C)[C@H](CO)Nc1nc(Nc2cccc(Cl)c2)c2ncn(C(C)C)c2n1	80.8
CCN1/C(=C/C(C)=O)Sc2ccc(OC)cc21	82.2
COc1ccc(-c2cnc3c(-c4ccsc4)cnn3c2)cc1	95.5
CN(C)CCCn1cc(C2=C(c3c[nH]c4ccccc34)C(=O)NC2=O)c2ccccc21	52.9
CS(=O)(=O)CCNCc1ccc(-c2ccc3ncnc(Nc4ccc(OCc5cccc(F)c5)c(Cl)c4)c3c2)o1	106
O=C1NC(=O)/C(=C/c2ccc3nccnc3c2)S1	93.2
COc1cc2ncnc(N3CCN(C(=O)Nc4ccc(Oc5ccccc5)cc4)CC3)c2cc1OC	99.6
O=C(Nc1ccc(Cl)cc1)c1ccccc1NCc1ccncc1	92.6
COc1ccc(Cl)cc1NC(=O)Nc1cc(C)nc2ccccc12	81.6
Cn1cnc2cc3c(Nc4cccc(Br)c4)ncnc3cc21	83.4
COc1cc2ncnc(Nc3ccc(OCc4ccccc4)cc3)c2cc1OC	104
Nc1[nH]nc2nnc(-c3c(-c4ccccc4)nn4ccccc34)cc12	74.6
CC(C)c1nn(-c2c(Cl)cccc2Cl)c2nc(Cc3ccc(OCCO)cc3)[nH]c(=O)c12	47.9
C[S+]([O-])c1ccc(-c2nc(-c3ccncc3)c(-c3ccc(F)cc3)[nH]2)cc1 (stereo not shown)	99
CCC(=O)Nc1ccc2ncnc(Nc3cccc(Br)c3)c2c1	102
Cn1cc(/C=C2\C(=O)Nc3ccc(S(N)(=O)=O)cc32)c2ccccc21	80.2

Study 4
Cell line: sample J colorectal tumour organoid
Concentration: 1 µM
Baseline: DMSO
Structure (SMILES)	viability
COc1cc(Nc2ccnc3ccc(Br)cc23)cc(OC)c1OC	71.1%
CCCCNc1ncc(-c2ccc(CN3CCOCC3)cn2)c(NC2CCC(O)CC2)n1 (stereo not shown)	109%
CCC(=N\O)/C(C)=C/c1ccc(F)cc1	121%
CCNC(=O)c1cc2c(N3CCOC[C@H]3C)ccnc2n1C	106% and 98.1%
CCC(=NO)C(C)=Cc1ccc(F)c(C)c1	127%
Cl.Cl.NC1(c2ccc(-c3nc4ccn5c(=O)[nH]nc5c4cc3-c3ccccc3)cc2)CCC1	43.2%
CCOc1cn(-c2ccc(F)cc2C)nc1C(=O)Nc1ccc(Oc2ccnc3cc(OC)c(OC)cc23)c(F)c1	40.5% and 38.7%
Cc1ncc(-c2cc(Cl)ccc2F)cc1-n1c(=O)n(CC(N)=O)c2ccccc21	100%
CCN(CC)S(=O)(=O)Nc1cccc(-c2ccc3c(NC(=O)C4CC4)n[nH]c3c2)c1	94.4%

For quick reference, copied from above (study 4):
Structure (SMILES)	viability
CCNC(=O)c1cc2c(N3CCOC[C@H]3C)ccnc2n1C	106% and 98.1%
CCC(=NO)C(C)=Cc1ccc(F)c(C)c1	127%
Cl.Cl.NC1(c2ccc(-c3nc4ccn5c(=O)[nH]nc5c4cc3-c3ccccc3)cc2)CCC1	43.2%
CCOc1cn(-c2ccc(F)cc2C)nc1C(=O)Nc1ccc(Oc2ccnc3cc(OC)c(OC)cc23)c(F)c1	40.5% and 38.7%
